Published values from different studies.
Compare with care: the assays were run in different laboratories. Several values in a cell are separate wells, animals, samples, runs or records. ± gives the spread as reported.

Structure (SMILES)	assay	test system	conditions	scale	quantity	value
CC(C)[C@@H]1NC(=O)CNC(=O)[C@H](CC(N)=O)NC(=O)[C@H](CCCNC(=N)N)NC(=O)[C@H](Cc2ccc(O)cc2)NC(=O)[C@H](C(C)C)NC(=O)[C@@H](NC(=O)[C@@H](NC(=O)[C@H](CC(N)=O)NC(=O)[C@H](Cc2c[nH]c3ccccc23)NC(=O)[C@H](C)NC(=O)[C@H](Cc2ccccc2)NC(=O)CNC(=O)[C@H](CCCCN)NC(=O)[C@H](Cc2ccccc2)NC(=O)[C@H](Cc2ccccc2)NC(=O)[C@H](CCCCN)NC(=O)OCC2c3ccccc3-c3ccccc32)C(C)C)CSSC[C@@H](C(=O)N[C@@H](Cc2c[nH]cn2)C(=O)N[C@@H](CCCNC(=N)N)C(=O)N[C@@H](CCCNC(=N)N)C(=O)N[C@@H](C)C(=O)N[C@@H](CC(N)=O)C(N)=O)NC(=O)[C@H](C(C)C)NC(=O)[C@H](CCCNC(=N)N)NC1=O	–	ICR mouse, blood	intramammary, 5 mg/kg, day 5, 3 d dosing	–	MCV	41.1 ± 1.25 fL
CC[C@H](C)[C@@H]1NC(=O)[C@@H](NC(=O)[C@H](CCCCN)NC(=O)[C@H](CC(C)C)NC(=O)[C@H](CC(C)C)NC(=O)CNC(C)=O)CN(C)C(=O)c2ccc(=O)n(c2)CC[C@@H](C(=O)N[C@@H](CC(C)C)C(N)=O)NC(=O)[C@H]([C@@H](C)O)NC(=O)[C@H](CCCCN)NC1=O	circular dichroism	water	66 µM	–	helicity	0%
CC[C@H](C)[C@H](NC(=O)[C@H](C)NC(=O)[C@H](CCCCN)NC(=O)[C@H](CCCCN)NC(=O)[C@@H](N)CCCNC(=N)N)C(=O)N[C@@H](CCCCN)C(=O)N[C@@H](CC(C)C)C(=O)N[C@H](C(=O)N[C@@H](CCCCN)C(=O)N[C@@H](CCCCN)C(=O)N[C@@H](CC(C)C)C(=O)N[C@H](C(=O)N[C@@H](CCCCN)C(=O)N[C@@H](CCCCN)C(=O)N[C@@H](CC(C)C)C(=O)N[C@@H](CCCCN)C(=O)N[C@@H](CCCCN)C(=O)N[C@@H](C)C(=O)N[C@@H](CC(C)C)C(=O)N[C@@H](CCCCN)C(=O)O)C(C)C)C(C)C	–	human red blood cells	0.5 mg/L, 1 h, mean of replicates	–	hemolysis	0.601%
C(#Cc1cncc(OC[C@@H]2CCN2)c1)c1ccccc1	–	male Sprague-Dawley rat, plasma	oral, 75 mg/kg, 15 min	–	concentration	310 ng/mL
NC1CCN(C(=O)Oc2ccc(C3CCCC4(C3)OOC3(O4)C4CC5CC(C4)CC3C5)cc2)CC1 (racemic)	–	male mouse, plasma	oral, 50 mg/kg	–	MRT	9.8 h
C#Cc1c(F)ccc2cc(O)cc(-c3ncc4c(N5CC6CCC(C5)N6C(=O)OC(C)OC(=O)c5cccc6ccccc56)nc(OC[C@@]56CCCN5C[C@H](F)C6)nc4c3F)c12 (stereo partly shown)	measured: prodrug	mouse whole blood	1 µM	–	t1/2	49.5 min
CC(C)(CCCC/C=C/CCCCCC(C)(C)C(=O)O)C(=O)O	–	beagle dog, both sexes	oral, dose not given, 48 h	–	plasma concentration	4080 ng/mL
CCN(CC)CCOc1ccc(-c2nnn(Cc3ccc(OC)cc3)c2N)cc1	–	Sprague-Dawley rat	oral, up to 100 mg/kg	–	central nervous system function	no effect
C=Cc1c(C)c2cc3nc(c(CC(=O)[O-])c4[n-]c(cc5nc(cc1[n-]2)C(C)=C5CC)c(C)c4C(=O)[O-])C(CCC(=O)[O-])C3C.[Cu+2].[Na+].[Na+].[Na+] (stereo not shown)	–	Wistar rat, male	oral, 250 mg/kg daily, 28 days	–	serum alkaline phosphatase	164 ± 43.7 U/L
CSCC[C@H](N)C(=O)N[C@@H](C)C(=O)N[C@@H](Cc1c[nH]c2ccccc12)C(=O)N[C@@H](Cc1c[nH]cn1)C(=O)N[C@@H](CC(=O)O)C(=O)N[C@@H](CC(=O)O)C(=O)N[C@@H](CCC(=O)O)C(=O)N[C@@H](CCC(=O)O)C(=O)N[C@@H](Cc1ccccc1)C(=O)N[C@@H](C)C(=O)N[C@@H](CCCNC(=N)N)C(=O)N[C@@H](CCCNC(=N)N)C(=O)N[C@@H](CCCNC(=N)N)C(=O)N[C@@H](CCCNC(=N)N)C(=O)NCCCCCC(=O)NCCCCC(NC(=O)CCCCCNC(=O)[C@H](CCCNC(=N)N)NC(=O)[C@H](CCCNC(=N)N)NC(=O)[C@H](CCCNC(=N)N)NC(=O)[C@H](CCCNC(=N)N)NC(=O)[C@H](C)NC(=O)[C@H](Cc1ccccc1)NC(=O)[C@H](CCC(=O)O)NC(=O)[C@H](CCC(=O)O)NC(=O)[C@H](CC(=O)O)NC(=O)[C@H](CC(=O)O)NC(=O)[C@H](Cc1c[nH]cn1)NC(=O)[C@H](Cc1c[nH]c2ccccc12)NC(=O)[C@H](C)NC(=O)[C@@H](N)CCSC)C(=O)NCCCCC(NC(=O)C(CCCCNC(=O)CCCCCNC(=O)[C@H](CCCNC(=N)N)NC(=O)[C@H](CCCNC(=N)N)NC(=O)[C@H](CCCNC(=N)N)NC(=O)[C@H](CCCNC(=N)N)NC(=O)[C@H](C)NC(=O)[C@H](Cc1ccccc1)NC(=O)[C@H](CCC(=O)O)NC(=O)[C@H](CCC(=O)O)NC(=O)[C@H](CC(=O)O)NC(=O)[C@H](CC(=O)O)NC(=O)[C@H](Cc1c[nH]cn1)NC(=O)[C@H](Cc1c[nH]c2ccccc12)NC(=O)[C@H](C)NC(=O)[C@@H](N)CCSC)NC(=O)CCCCCNC(=O)[C@H](CCCNC(=N)N)NC(=O)[C@H](CCCNC(=N)N)NC(=O)[C@H](CCCNC(=N)N)NC(=O)[C@H](CCCNC(=N)N)NC(=O)[C@H](C)NC(=O)[C@H](Cc1ccccc1)NC(=O)[C@H](CCC(=O)O)NC(=O)[C@H](CCC(=O)O)NC(=O)[C@H](CC(=O)O)NC(=O)[C@H](CC(=O)O)NC(=O)[C@H](Cc1c[nH]cn1)NC(=O)[C@H](Cc1c[nH]c2ccccc12)NC(=O)[C@H](C)NC(=O)[C@@H](N)CCSC)C(N)=O (stereo partly shown)	–	C57BL/6 mouse female, stomach	dose not given, 3 h	reference: total	mean tissue distribution	35.4%
CCCCC[C@H]1C(=O)N[C@H](C)C(=O)N(C)[C@@H](CCCCC)C(=O)N[C@H](C)C(=O)N(C)[C@@H](CCCCC)C(=O)N[C@H](C)C(=O)N(C)[C@@H](CCCCC)C(=O)N(C)[C@H](C)C(=O)N1C	PAMPA, HPLC-UV	–	500 µM, pH 7.4	–	log Papp	-5.83 ± 0.04
CC[C@H](C)[C@H](NC(=O)[C@H](CCCCN)NC(=O)CNC(=O)[C@H](CC(C)C)NC(=O)[C@H](Cc1ccccc1)NC(=O)[C@H](CCCCN)NC(=O)[C@H](CO)NC(=O)[C@H](Cc1ccccc1)NC(=O)[C@H](Cc1c[nH]c2ccccc12)NC(=O)[C@H](CCC(N)=O)NC(=O)[C@@H](NC(=O)[C@H](Cc1ccccc1)NC(=O)CCCCCNC(=O)CN1CCN(CC(=O)O)CCN(CC(=O)O)CCN(CC(=O)O)CC1)C(C)C)C(=O)N[C@@H](CCC(=O)O)C(=O)N1CCC[C@H]1C(=O)N[C@@H](CC(=O)O)C(=O)N[C@H](C(=O)N[C@@H](CO)C(=O)N[C@@H](CCC(N)=O)C(=O)N[C@H](C(=O)N[C@@H](CCC(N)=O)C(=O)N[C@@H](CC(=O)O)C(=O)N1CCC[C@H]1C(=O)N[C@@H](CC(N)=O)C(=O)N[C@@H](CC(=O)O)C(=O)N[C@@H](CCC(N)=O)C(=O)N[C@@H](Cc1ccc(O)cc1)C(=O)N[C@@H](CCC(=O)O)C(=O)N1CCC[C@H]1C(=O)N[C@@H](Cc1ccccc1)C(=O)O)C(C)C)C(C)C [copper-64 labelled]	–	C57BL/6 mice, male, tumour-free, pancreas	24 h	–	tissue uptake	1.54 ± 0.08 %ID/g
CN1Cc2cc(Cl)ccc2-n2c(nnc2C2CCN(c3cccc([18F])n3)CC2)C1	PET two-tissue compartment model	rhesus monkey, thalamus	intravenous, dose not given, 100 min scan, baseline scan	–	total volume of distribution	1.14 ± 0.35 mL/cm3
C=CCN1CCC23c4c5ccc(OC(=O)c6ccccc6)c4OC2C(=O)CCC3(O)C1C5 (stereo not shown)	–	rat plasma	1 h, with: digitonin 100 µM	–	remaining compound	0%
CCCC[C@H]1C(=O)N(C)[C@@H](CCCC)C(=O)N[C@@H](CCCNC(=O)CN2CCN(CC(=O)O)CCN(CC(=O)O)CCN(CC(=O)O)CC2)C(=O)N[C@H](C(=O)NCC(N)=O)CSCC(=O)N[C@@H](Cc2ccc(O)cc2)C(=O)N(C)[C@@H](C)C(=O)N[C@@H](CC(N)=O)C(=O)N2CCC[C@H]2C(=O)N[C@@H](Cc2c[nH]cn2)C(=O)N[C@@H](CC(C)C)C(=O)N(C)CC(=O)N[C@@H](Cc2c[nH]c3ccccc23)C(=O)N[C@@H](CO)C(=O)N[C@@H](Cc2c[nH]c3ccccc23)C(=O)N1C [gallium-68 labelled]	–	NOD/SCID mice, CHO-hPD-L1 xenograft, stomach	60 min, PBS pretreatment	–	tissue uptake	2.33 ± 0.33 %ID/g
N=C(N)NCCC[C@H](NC(=O)[C@H](CCCNC(=N)N)NC(=O)[C@H](CCCNC(=N)N)NC(=O)[C@H](CCC(N)=O)NC(=O)[C@H](CCCNC(=N)N)NC(=O)[C@H](CCCNC(=N)N)NC(=O)[C@H](CCCCN)NC(=O)[C@H](CCCCN)NC(=O)[C@H](CCCNC(=N)N)NC(=O)CNC(=O)[C@H](Cc1ccc(O)cc1)NC(=O)[C@H](Cc1ccccc1)NC(=O)[C@H](Cc1ccccc1)NC(=O)[C@H](Cc1ccccc1)NC(=O)Cc1ccc2ccccc2c1)C(=O)O	–	C57BL/6 mice	intraperitoneal, 20 mg/kg, 24 h	direction not given	health score	5
O=C1NC2(CC2)COc2ncc(F)cc2[C@H]2COCCN2c2ccn3ncc1c3n2	–	Sprague-Dawley rat, female, blood	oral, 10 mg/kg/day, 4 weeks, end of recovery, subacute toxicity	–	mean corpuscular volume	57.3 ± 1.6 fL
CSCC[C@H](NC(=O)[C@@H](NC(=O)[C@H](CC(C)C)NC(=O)[C@@H](NC(=O)[C@H](Cc1c[nH]cn1)NC(=O)CCCCCNC(=O)[C@H](CCCNC(=N)N)NC(=O)[C@H](CCCNC(=N)N)NC(=O)[C@H](CCCNC(=N)N)NC(=O)[C@H](CCC(N)=O)NC(=O)[C@H](CCCNC(=N)N)NC(=O)[C@H](CCCNC(=N)N)NC(=O)[C@H](CCCCN)NC(=O)[C@H](CCCCN)NC(=O)[C@H](CCCNC(=N)N)NC(=O)CNC(=O)[C@@H](N)Cc1ccc(O)cc1)C(C)C)C(C)C)C(=O)N[C@@H](CS)C(=O)N[C@@H](C)C(=O)N[C@H](C(N)=O)[C@@H](C)O	–	C57BL/6J mice	Alzet osmotic pump, 3 mg/kg, 8 weeks	–	hemoglobin	11.5 g/dL and 12.8 g/dL and 8.4 g/dL
[2H]C([2H])([2H])C1(C([2H])([2H])[2H])NC(=O)N(c2ccc(F)c(C(C)(F)F)c2)C1=O	–	Sprague-Dawley rat, male and female	oral, single dose	–	MTD	~100 mg/kg

A few entries again:
Structure (SMILES)	assay	test system	conditions	scale	quantity	value
CSCC[C@H](N)C(=O)N[C@@H](C)C(=O)N[C@@H](Cc1c[nH]c2ccccc12)C(=O)N[C@@H](Cc1c[nH]cn1)C(=O)N[C@@H](CC(=O)O)C(=O)N[C@@H](CC(=O)O)C(=O)N[C@@H](CCC(=O)O)C(=O)N[C@@H](CCC(=O)O)C(=O)N[C@@H](Cc1ccccc1)C(=O)N[C@@H](C)C(=O)N[C@@H](CCCNC(=N)N)C(=O)N[C@@H](CCCNC(=N)N)C(=O)N[C@@H](CCCNC(=N)N)C(=O)N[C@@H](CCCNC(=N)N)C(=O)NCCCCCC(=O)NCCCCC(NC(=O)CCCCCNC(=O)[C@H](CCCNC(=N)N)NC(=O)[C@H](CCCNC(=N)N)NC(=O)[C@H](CCCNC(=N)N)NC(=O)[C@H](CCCNC(=N)N)NC(=O)[C@H](C)NC(=O)[C@H](Cc1ccccc1)NC(=O)[C@H](CCC(=O)O)NC(=O)[C@H](CCC(=O)O)NC(=O)[C@H](CC(=O)O)NC(=O)[C@H](CC(=O)O)NC(=O)[C@H](Cc1c[nH]cn1)NC(=O)[C@H](Cc1c[nH]c2ccccc12)NC(=O)[C@H](C)NC(=O)[C@@H](N)CCSC)C(=O)NCCCCC(NC(=O)C(CCCCNC(=O)CCCCCNC(=O)[C@H](CCCNC(=N)N)NC(=O)[C@H](CCCNC(=N)N)NC(=O)[C@H](CCCNC(=N)N)NC(=O)[C@H](CCCNC(=N)N)NC(=O)[C@H](C)NC(=O)[C@H](Cc1ccccc1)NC(=O)[C@H](CCC(=O)O)NC(=O)[C@H](CCC(=O)O)NC(=O)[C@H](CC(=O)O)NC(=O)[C@H](CC(=O)O)NC(=O)[C@H](Cc1c[nH]cn1)NC(=O)[C@H](Cc1c[nH]c2ccccc12)NC(=O)[C@H](C)NC(=O)[C@@H](N)CCSC)NC(=O)CCCCCNC(=O)[C@H](CCCNC(=N)N)NC(=O)[C@H](CCCNC(=N)N)NC(=O)[C@H](CCCNC(=N)N)NC(=O)[C@H](CCCNC(=N)N)NC(=O)[C@H](C)NC(=O)[C@H](Cc1ccccc1)NC(=O)[C@H](CCC(=O)O)NC(=O)[C@H](CCC(=O)O)NC(=O)[C@H](CC(=O)O)NC(=O)[C@H](CC(=O)O)NC(=O)[C@H](Cc1c[nH]cn1)NC(=O)[C@H](Cc1c[nH]c2ccccc12)NC(=O)[C@H](C)NC(=O)[C@@H](N)CCSC)C(N)=O (stereo partly shown)	–	C57BL/6 mouse female, stomach	dose not given, 3 h	reference: total	mean tissue distribution	35.4%
